Measurements gathered from unrelated publications.
A part holds a random share of what one study measured.

Series 1
Target: Fragile X messenger ribonucleoprotein 1, C-terminal low-complexity region (Fmr1, Mus musculus, UniProt P35922)
Method: RNA Bind-n-Seq
Molecule type: RNA
Matrix: in vitro
Concentration: 200 nM
Setting: whole 134-nt RNA, ends assumed
With: 150 mM KCl
Baseline: input library
Reading: higher = stronger binding
Constant ends, left off below: GGGAGUUCUACAGUCCGACGAUC … UGGAAUUCUCGGGUGUCAAGG
Sequence	log2 enrichment
CUGUGCUACACAUCGUAUGUACCGAAUCGGAAAAAAAGGAAAAAAAGGGGAAAAAAAGGGGAAAGUAUUAUGUUACGCCGUUCGGAUCUG	-0.827
UCCUGUGCUACACAUCGUAUGUACCGAAUCGGGUUUUUGGGGUUUUUGGGUUUUUGGGGAAAGUAUUAUGUUACGCCGUUCGGAUCUGCA	0.52
UCCUGUGCUACACAUCGUAUGUACCGAAUCGGGGAAAAAAAGGGGAGGGGAAAAAGGGGAAAGUAUUAUGUUACGCCGUUCGGAUCUGCA	0.408
UUCGUUUUUUUCCUUAGUCUGAAGUUGCAGCCGGAGUGAAGAAGAGCGGACCGCUGCCCAGUGCUGAGGUAGAGUGUCGGAUCUGUUUUC	-1.61
UCCUCAAGUCCUGUGCUACACAUCGUAUGUACCGAAUCGGAGGGAGGGGAGGAAAGUAUUAUGUUACGCCGUUCGGAUCUGCACUUCCAG	0.374
GAAAUUGAACCAGCAGCGAUGAAAGCAGCAGCUGCUGCCCCUGCCUCAGAGGAUGAGGACGAUGAGGAUGACGAAGAUGAUGAGGAUGAC	-0.846
CUGUGCUACACAUCGUAUGUACCGAAUCGGGGUUUUUGGGGAAAAAAAGGGGUUUUUGGGGAAAGUAUUAUGUUACGCCGUUCGGAUCUG	0.0272
ACCAUGCAGGUGGGCAUCUUUGGGAAGUGGGGCAAGGGGGGGAUAGGGAGGGGGGUAACACUUAAAGAACAGGUGGUCCCAGGUCGUUUC	0.644
CAAGUCCUGUGCUACACAUCGUAUGUACCGAAUCGGAGGUUUUUGGAAAAAAAGGAAAGUAUUAUGUUACGCCGUUCGGAUCUGCACUUC	-0.81

Series 2
Target: RING finger protein unkempt homolog, zinc fingers 1-6, GST-SBP tag (UNK, Homo sapiens, UniProt Q9C0B0, residues 30-357)
Sequence of UniProt Q9C0B0 (30-357, looked up): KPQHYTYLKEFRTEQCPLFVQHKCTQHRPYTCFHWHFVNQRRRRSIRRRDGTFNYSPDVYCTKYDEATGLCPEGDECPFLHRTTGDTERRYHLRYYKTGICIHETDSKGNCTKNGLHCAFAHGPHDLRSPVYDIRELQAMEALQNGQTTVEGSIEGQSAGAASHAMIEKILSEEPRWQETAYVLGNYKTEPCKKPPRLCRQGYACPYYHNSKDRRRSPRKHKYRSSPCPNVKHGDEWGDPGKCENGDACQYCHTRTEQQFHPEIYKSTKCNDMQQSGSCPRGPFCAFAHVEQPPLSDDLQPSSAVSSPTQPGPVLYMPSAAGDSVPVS
Method: RNA Bind-n-Seq
Molecule type: RNA
Matrix: in vitro
Concentration: not given
Setting: RNA with constant flanks, human and mouse sites, ends assumed
Baseline: input RNA pool
Reading: higher = stronger binding
Constant ends, left off below: GGGAGUUCUACAGUCCGACGAUC … CAACAGAGGAUUGAGCAUCA
Sequence	bound/input enrichment [ratio]
AAUGUUUACUGUAGUGUAUCUGUACAGAUAACAUGUAUUUUUAAAGGAAACACGGAGUUGAAGCUAUUUUUUCCUGCAUUUUGGAUUGACCUGAGGAACAUUCCGUUUGAAACGUGCUCG	0.155
GGAGGAGAAGACAAGCUAAAAAUGAUUCGGGAAUAUCGGCAAAUGGUUGAGACUGAGCUAAAGUUAAUCUGUUGUGACAUUCUGGAUGUACUGGACAAACACCUCAUUCCAGCAGCUAAC	0.476
UCCCUCCCUCCAGCCCUCACCGGCCAUGGGACUCCUGGGGGGACAUCUGUAUUCGGUGGUGUUUUCCCAACGUUGACCUCUCCUCUUUAAUCGCUCCUGUAAGCCCUGGGCAAAAGCUGC	0.335
CAAAUCCUAGAGAGCCUUUCCACGUCUCCUCUGGCCGAGCCCCCCCACUUUGUUGAACAUAUUAGAUCUACCUUGAUGUUUUUAAAAAAAUUCCCAUCUCCAGAGAAUAUACUCUUUCCU	1.83
AUUUAAAAUUCCAGUAGUUAUAUUUAAUGAUCUCACCCCUGAGUUUCUUUUUCAUUAAAGUAGCUUUCAUUUCUAUUAUUCCAAUUUACUGAUAUGAACAAAUAGAAGGUCCGUGUGAGC	9.89
UGGCAAAUUUGUAUCAGUAAUUUGAAAAUGAGAUAUUAGGAAAAACCAAUUCUUCUUAAAUUUAGUUCAUCUUUCUUUAAAAGAACAUUAAAUGUAACCAUUUUGUCAGAUCCAUGUAUU	0.772
UGUAUUAAGAACCGAUGAAAAAAAUUCUCCUGUAACAUUUUUUUAAGAAAACUUUGUUUGUUUAAAGAAAAAGUAUUGUAUAAAUUAUAAUUUUUAUUUAAAUAAACCUAAAAUGCUUUG	0.292
AACUCUCUCUGUAAAAGCAUAAUGAUGUAUGCCUGUACCAAGAAUGUUGACUUGGCUAUUCAGCAGGGGAAACAAAAACCUUCUGGCCUCACCCGUUCCACAUCAAUGCUUAUUUCUUCU	0.108

Series 3
Target: RNA binding protein fox-1 homolog 2, RRM domain, GST-SBP tag (RBFOX2, Homo sapiens, UniProt O43251-10, residues 100-194)
Method: RNA Bind-n-Seq
Molecule type: RNA
Matrix: in vitro
Concentration: 365 nM
Setting: natural RNA segment, single round, ends assumed
Baseline: no-protein control
Reading: higher = stronger binding
Constant ends, left off below: GGGAGUUCUACAGUCCGACGAUC … UGGAAUUCUCGGGUGCCAA
Residues (chain): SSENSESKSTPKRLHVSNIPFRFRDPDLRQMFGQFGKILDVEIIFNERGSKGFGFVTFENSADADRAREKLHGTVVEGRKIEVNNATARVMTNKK
Sequence	RBNS enrichment (R)
CCCAUAGGCUAAUACCCCUGGCACUGAUGGGCCCUGGGAAAUGUACAGUAGACCAGUUGCUCUUUGCUUCAGGUCCCUUUGAUGGAGUCUGUCAUCAGCCAGUGCUAACA	0.267
CCUAUACCUGCCCAGGACAUCUUAAUAACCCCAGGGCUGGGGACUCCAUGGCCACACUCCUGUGAAUGGGUAUCGGGGAGUUAGGAUCUUUCUUCUCCCAAUGCCUCUUG	0.702
UGGCACCCAGAGCUUCUGUUAACUUGAGCCGGGAGCUGGGUUCUUUAGCAAGAUGAGCUUCUGGGGUCCUUAUGUUGGUAAUGGUGCCAUGUCCAGACCCACAGCAGAGU	0.62
UUUCCAUAUCUUUCCAUACAUCCAUUUCUGAAGUAUUCAGGAAUGUUUUCAUAAUCGAAAGAAACGGGUAUCCAAAUAAAACCAAGUUCUUGACAUUGGUCUGUUUUGCU	0.317
UUUUUUUUUUUUAAACUUUGCCUUCCUGGACAACUUAAGGUGUGUCUCUUAAUUCUCUCUUACAGUAUUUGUUUACUUUGGAUUUUUGUUUUUAAUCUCAAAAGAGAGAG	0.644
UGAUGAUUACUGGAAUCGAUUUUAUGUCUUUUGUAUUUUAAUCACUUGAGUUAAUCAACCACUGGCAAAUCCCAUUUGACAAAGAUUAGCAUUGUAAAAAACAGAUACUG	0.355
UCUCAGCGCUUGAGGAGUGCUGCCUGAUUCUUCUGCAAGCCCCACUGGGAGCCACCACCUCCGGCUCCUGGGUGACUUUACACCUAGAUGCUCCGAGAGCUACUGCAUCU	0.619
CCCAAUACCUCUGAGGGUCAGAACUGUGCUUGGGACCUGAGUCAUGAGCCCAGAUCCACAGCAGAGCACAGGCUGCCAAGAUGUCUACUGAAAGUCCCUGAUCAACUCUU	0.182

Series 4
Target: Protein C-ets-1 (ETS1, Homo sapiens, UniProt P14921, residues 1-441, Y397A, full length assumed)
Method: protein-binding microarray
Molecule type: double-stranded DNA, one strand shown
Matrix: in vitro
Concentration: not given
Setting: k-mer, scored over probes, only values ≥0.25
Reading: higher = stronger binding
Construct (chain): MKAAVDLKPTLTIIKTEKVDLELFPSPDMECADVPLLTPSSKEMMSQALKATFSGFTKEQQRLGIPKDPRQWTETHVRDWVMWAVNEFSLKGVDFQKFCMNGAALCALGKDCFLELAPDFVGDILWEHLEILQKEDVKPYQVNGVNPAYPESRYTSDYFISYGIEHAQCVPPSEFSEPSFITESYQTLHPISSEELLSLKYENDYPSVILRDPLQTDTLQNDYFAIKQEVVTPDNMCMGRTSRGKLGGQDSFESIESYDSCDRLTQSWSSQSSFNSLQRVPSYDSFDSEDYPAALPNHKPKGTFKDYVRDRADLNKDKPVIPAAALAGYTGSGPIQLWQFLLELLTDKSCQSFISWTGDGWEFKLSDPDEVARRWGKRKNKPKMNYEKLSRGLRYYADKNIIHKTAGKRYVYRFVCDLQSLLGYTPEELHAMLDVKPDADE
Sequence	E-score
AACATTGT	0.255
ATGTCGCG	0.267
AAACGTCG	0.291
CTTTGTAA	0.262
AATTTGTA	0.294
GCTGGCAA	0.3
GGCAGAAC	0.268
TGTATACA	0.278
CGGATGTC	0.398
ATGTACGA	0.337
GCGACAAA	0.325
CTACTTCC	0.352
AATTACAA	0.271
CGACATTA	0.284
CATCCGCA	0.267
TGGCGACA	0.283
CCGCCAAA	0.319

A few entries again (series 1):
Sequence	log2 enrichment
UUCGUUUUUUUCCUUAGUCUGAAGUUGCAGCCGGAGUGAAGAAGAGCGGACCGCUGCCCAGUGCUGAGGUAGAGUGUCGGAUCUGUUUUC	-1.61
UCCUGUGCUACACAUCGUAUGUACCGAAUCGGGGAAAAAAAGGGGAGGGGAAAAAGGGGAAAGUAUUAUGUUACGCCGUUCGGAUCUGCA	0.408
CUGUGCUACACAUCGUAUGUACCGAAUCGGAAAAAAAGGAAAAAAAGGGGAAAAAAAGGGGAAAGUAUUAUGUUACGCCGUUCGGAUCUG	-0.827
UCCUCAAGUCCUGUGCUACACAUCGUAUGUACCGAAUCGGAGGGAGGGGAGGAAAGUAUUAUGUUACGCCGUUCGGAUCUGCACUUCCAG	0.374
